# Assay results pooled from the literature.
# Compare with care: the assays were run in different laboratories. ± gives the spread as reported.
SMILES,test,system,setting,how to read,endpoint,result
OC(Cn1cncn1)(Cn1cncn1)c1ccc(F)cc1F,"cytochrome c release, ELISA",BALB/cByJ female mouse liver mitochondria,30 min,baseline: alamethicin maximal release,EC20,> 400 µM
COc1cccc(N2CCN(C3=Nc4c(F)cccc4[C@H](CC(=O)O)N3c3cc(C(F)(F)F)ccc3OC)CC2)c1,UHPLC-MS/MS,"healthy women, plasma","intravenous infusion, 240 mg single dose, 30 min infusion, HPβCD formulation",,MRT,5.61 ± 1.22 h
CS(=O)(=O)n1cc2c(n1)CN([C@H]1CO[C@H](c3cc(F)ccc3F)[C@@H](N)C1)C2,,"healthy male human, plasma","oral, 200 mg, fasted, geometric mean",,AUC(0-24h),69 µM·h
CN(C/C=C/C#CC(C)(C)C)Cc1cccc2ccccc12,"cytochrome c release, ELISA",BALB/cByJ female mouse liver mitochondria,30 min,baseline: alamethicin maximal release,EC20,> 50 µM
O=C(O)CCc1cccc(O)c1O,,"human, fasted baseline, cerebrospinal fluid",,,mean concentration,15.9 nM
CC(C)(O)CNc1nc(Nc2ccnc(C(F)(F)F)c2)nc(-c2cccc(C(F)(F)F)n2)n1,,human patients,"oral, 100 mg once daily, cycle 1 day 1, with: consolidation chemotherapy",,mean Cmax,9780 ng/mL
CCc1oc2ccc(F)cc2c1C(=O)c1cc(Br)c(O)c(Br)c1,metabolic stability,"Sprague-Dawley rat, liver microsomes","1 µM, pH 7.4",,microsomal CLint,143 µL/min/mg
CS(=O)(=O)c1ccc(-c2cnc(N)c(-c3ccc(C(F)(F)F)nc3)c2)cc1,,"pregnant female Sprague-Dawley rat, plasma","oral, 3 mg/kg/day, gestation day 17",,AUC(0-t),13.2 µg·h/mL
CCCC(CCC)C(=O)O,"regression tree, refers to: chills","human, plasma","intravenous, dose not given",,AUCinf breakpoint,> 8680 µg·h/mL
CN[C@H]1CN(c2ccc3c(=O)c(C(=O)O)cn(-c4nccs4)c3n2)C[C@@H]1OC,,"human patients, plasma","intravenous, 18 to 90 mg/m^2 weekly, day 1, cycle 1, mean, noncompartmental",,Vss,120 L
[2H]C([2H])([2H])Oc1cc2c(cc1OC([2H])([2H])[2H])C1CC(=O)C(CC(C)C)CN1CC2 (stereo not shown),refers to: deuterated total (α+β)-HTBZ,"healthy human volunteers, plasma","oral, 6 mg single dose, standard meal",,dose-normalized AUC(0-t),19.1 ng·h/mL
Cn1c(-c2ccc(C(N)=O)cc2F)nnc1C(C)(C)Oc1c(F)cc(Cl)cc1F,,"healthy young Japanese subjects, plasma","oral, 50 mg once daily, day 18, 14 days dosing",,AUC(0-tau) range,1.2 to 13.2 µg·h/mL
Cn1cnc2c(F)c(Nc3ccc(Br)cc3Cl)c(C(=O)NOCCO)cc21,ultrafiltration,"human end-stage renal disease, plasma","oral, 50 mg",baseline: healthy subjects,increase of unbound fraction,~40%
CCCC[C@@H]1NC(=O)[C@@H](NC(=O)[C@H](CCC(=O)O)NC(=O)CNC(=O)CN2CCN(CC(=O)O)CCN(CC(=O)O)CCN(CC(=O)O)CC2)CCCCNC(=O)C[C@@H](C(N)=O)NC(=O)[C@H](C(C)C)NC(=O)[C@@H]2CCCN2C(=O)[C@H](CCCNC(=N)N)NC(=O)CNC(=O)[C@H](Cc2c[nH]c3ccccc23)NC(=O)[C@H](CCCNC(=N)N)NC(=O)[C@@H](Cc2ccccc2)NC(=O)[C@H](Cc2c[nH]cn2)NC(=O)[C@H](CCC(=O)O)NC1=O [indium-111 labelled],,"C57 mice, B16/F10 lung metastatic melanoma, bone","intravenous, 0.037 MBq, 4 h",,tissue uptake,0.03 ± 0.03 %ID/g
CC(C)C(=O)Nc1ccc([N+](=O)[O-])c(C(F)(F)F)c1,mitochondrial swelling,BALB/cByJ female mouse liver mitochondria,"30 min, with: succinate + rotenone",baseline: CaCl2 maximal swelling,EC20,> 800 µM
CN1CCN(CCOc2cc(OC3CCOCC3)c3c(Nc4c(Cl)ccc5c4OCO5)ncnc3c2)CC1,,"beagle dog, both sexes","oral, 5 mg/kg/day, week 39, repeated daily dosing",,AUC(0-t),5.49 µg·h/mL
